Measured values collected from several papers.
Numbered parts are unrelated; each lists some results of a single study. “And” joins repeats or separate records; there may be more than shown.
Sequence of UniProt Q9HBH9 (whole entry, looked up): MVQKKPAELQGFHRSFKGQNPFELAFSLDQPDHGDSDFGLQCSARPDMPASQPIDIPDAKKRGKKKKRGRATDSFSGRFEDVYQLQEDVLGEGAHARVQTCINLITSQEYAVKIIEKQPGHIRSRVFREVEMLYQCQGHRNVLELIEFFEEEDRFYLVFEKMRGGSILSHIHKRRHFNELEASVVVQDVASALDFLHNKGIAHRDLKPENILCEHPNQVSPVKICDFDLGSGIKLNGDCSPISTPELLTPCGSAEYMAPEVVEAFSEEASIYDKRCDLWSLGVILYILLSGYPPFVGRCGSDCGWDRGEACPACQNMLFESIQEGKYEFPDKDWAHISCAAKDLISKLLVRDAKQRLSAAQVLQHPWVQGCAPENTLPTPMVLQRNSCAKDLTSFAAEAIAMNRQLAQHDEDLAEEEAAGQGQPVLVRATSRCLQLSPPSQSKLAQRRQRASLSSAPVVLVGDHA
Sequence of UniProt Q86Y07 (whole entry, looked up): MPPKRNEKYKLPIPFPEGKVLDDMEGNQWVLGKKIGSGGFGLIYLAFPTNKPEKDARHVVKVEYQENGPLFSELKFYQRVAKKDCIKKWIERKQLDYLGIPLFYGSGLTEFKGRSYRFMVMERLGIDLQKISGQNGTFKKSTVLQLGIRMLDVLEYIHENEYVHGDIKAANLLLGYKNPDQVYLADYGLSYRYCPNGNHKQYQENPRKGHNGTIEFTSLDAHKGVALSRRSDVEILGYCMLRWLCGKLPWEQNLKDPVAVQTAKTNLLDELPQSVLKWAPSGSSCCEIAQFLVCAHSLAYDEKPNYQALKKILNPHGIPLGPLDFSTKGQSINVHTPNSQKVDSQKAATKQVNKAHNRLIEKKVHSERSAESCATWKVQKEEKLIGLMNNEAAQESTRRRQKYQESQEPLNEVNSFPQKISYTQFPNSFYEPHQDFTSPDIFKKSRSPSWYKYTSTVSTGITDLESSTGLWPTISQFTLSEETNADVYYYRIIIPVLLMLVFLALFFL
Sequence of UniProt Q9BUB5 (whole entry, looked up): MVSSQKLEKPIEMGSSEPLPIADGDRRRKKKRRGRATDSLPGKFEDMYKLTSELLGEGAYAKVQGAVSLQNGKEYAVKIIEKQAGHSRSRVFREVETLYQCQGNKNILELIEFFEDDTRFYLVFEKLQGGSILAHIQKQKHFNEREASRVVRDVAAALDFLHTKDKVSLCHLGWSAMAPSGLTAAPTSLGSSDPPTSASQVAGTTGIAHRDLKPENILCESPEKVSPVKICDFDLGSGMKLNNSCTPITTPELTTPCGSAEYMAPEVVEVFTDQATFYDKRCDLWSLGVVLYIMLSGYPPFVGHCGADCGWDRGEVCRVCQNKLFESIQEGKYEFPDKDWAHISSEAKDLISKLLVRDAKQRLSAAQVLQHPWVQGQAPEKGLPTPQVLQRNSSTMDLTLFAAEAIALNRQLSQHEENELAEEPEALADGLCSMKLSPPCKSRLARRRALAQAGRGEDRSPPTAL
Sequence of UniProt P36897 (whole entry, looked up): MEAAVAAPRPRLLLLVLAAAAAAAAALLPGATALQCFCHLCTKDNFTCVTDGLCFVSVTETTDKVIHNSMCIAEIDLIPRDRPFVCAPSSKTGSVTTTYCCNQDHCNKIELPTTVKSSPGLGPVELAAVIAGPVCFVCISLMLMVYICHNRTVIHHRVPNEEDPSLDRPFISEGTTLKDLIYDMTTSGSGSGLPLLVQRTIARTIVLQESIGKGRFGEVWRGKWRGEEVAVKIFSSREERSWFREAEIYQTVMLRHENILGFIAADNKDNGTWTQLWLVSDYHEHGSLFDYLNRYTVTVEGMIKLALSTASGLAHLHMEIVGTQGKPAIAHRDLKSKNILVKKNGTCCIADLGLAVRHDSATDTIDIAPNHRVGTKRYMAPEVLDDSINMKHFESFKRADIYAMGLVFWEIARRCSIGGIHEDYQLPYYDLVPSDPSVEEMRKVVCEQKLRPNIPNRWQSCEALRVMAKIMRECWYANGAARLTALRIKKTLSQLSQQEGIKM

Series 1
Target: Eukaryotic initiation factor 4A-I (EIF4A1, Homo sapiens, UniProt P60842)
Sequence of UniProt P60842 (whole entry, looked up): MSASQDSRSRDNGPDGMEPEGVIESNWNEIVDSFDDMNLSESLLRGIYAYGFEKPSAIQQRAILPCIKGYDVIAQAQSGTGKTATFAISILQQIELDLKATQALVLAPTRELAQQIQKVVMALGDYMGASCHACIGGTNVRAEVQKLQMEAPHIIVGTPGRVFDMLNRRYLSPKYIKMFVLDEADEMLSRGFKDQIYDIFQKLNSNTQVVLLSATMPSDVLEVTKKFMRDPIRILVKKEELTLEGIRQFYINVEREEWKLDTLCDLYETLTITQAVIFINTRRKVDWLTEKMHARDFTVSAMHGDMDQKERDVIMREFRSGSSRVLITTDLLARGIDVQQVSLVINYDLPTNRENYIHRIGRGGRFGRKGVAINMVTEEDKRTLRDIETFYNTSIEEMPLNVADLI
Effect on: RNA clamping
Method: fluorescence polarization
Concentration: concentration not given
Together with: FAM-labelled poly r(AG)8 RNA
Reading: higher = more clamping
Endpoint: fluorescence polarization change
COc1ccc([C@@]23Oc4cc(OS(=O)(=O)c5ccc(C)cc5)cc(OC)c4[C@]2(O)c2nc(-c4ccccc4)n(Cc4ccccc4)c(=O)c2[C@H]3c2ccccc2)cc1: -12.2 mP
COC(=O)[C@@H]1[C@@H](c2ccccc2)[C@]2(c3ccc(OC)cc3)Oc3cc(OC)cc(OC)c3[C@@]23NC(c2csc(C)n2)=N[C@@]13O: 27.4 mP
C#CCOc1nc(-c2ccccc2)nc2c1[C@@H](c1ccccc1)[C@]1(c3ccc(OC)cc3)Oc3cc(OCC(=O)OCC)cc(OC)c3[C@]21OCC(=O)OCC: -13.2 mP
COC(=O)/C=C/n1c(-c2ccccc2)nc2c(c1=O)[C@@H](c1ccccc1)[C@]1(c3ccc(OC)cc3)Oc3cc(OC)cc(OC)c3[C@]21O: 5.2 mP
COC(=O)CCCn1c(-c2ccccc2)nc2c(c1=O)[C@H](c1ccccc1)[C@]1(c3ccc(OC)cc3)Oc3cc(OC)cc(OC)c3[C@]21O: 15.6 mP
COC(=O)[C@H]1C(=O)[C@@]2(OC)c3c(OC)cc(OC)cc3O[C@@]2(c2ccc(OC)cc2)[C@@H]1c1ccccc1: 9.3 mP
CONC(=O)[C@H]1[C@@H](O)[C@@]2(O)c3c(OC)cc(O)cc3O[C@@]2(c2ccc(Br)cc2)[C@@H]1c1ccccc1: 73.8 mP
COC(=O)[C@@H]1[C@@H](c2ccccc2)[C@]2(c3ccc(OC)cc3)Oc3cc(OC)cc(OC)c3[C@@]23NC(Cc2ccccc2)=N[C@@]13O: 65.4 mP and 43.3 mP
COC(=O)[C@@H]1[C@@H](c2ccccc2)[C@]2(c3ccc(OC)cc3)Oc3cc(OC)cc(OC)c3[C@@]23OC(c2ccccc2Cl)=N[C@@]13O: -16.8 mP
O[C@@H]1C2(O)c3ccccc3O[C@]1(c1ccccc1)[C@@H](/C=C/c1ccccc1)[C@@H]2c1ccccc1: 9.6 mP
COC(=O)[C@H]1C(=O)[C@@]2(NCC3CCNCC3)c3c(OC)cc(OC)cc3O[C@@]2(c2ccc(OC)cc2)[C@@H]1c1ccccc1: -8.2 mP
COc1cc(OC)c2c(c1)O[C@@]1(c3ccc(OC)c(O)c3)[C@H](c3ccccc3)[C@@H](C(=O)N(C)OC)[C@@H](O)[C@@]21O: 69.5 mP
COC(=O)[C@@H]1[C@@H](c2ccccc2)[C@]2(c3ccc(OC)cc3)Oc3cc(OC)cc(OC)c3[C@@]23NC(c2ccc(Br)cc2)=N[C@@]13O: 14 mP
COC(=O)[C@@H]1[C@@H](c2ccccc2)[C@]2(c3ccc(OC)cc3)Oc3cc(OC)cc(OC)c3[C@@]23NC(c2ccc(OC)cc2)=N[C@@]13O: 43.6 mP
COC(=O)[C@@H]1[C@@H](c2ccccc2)[C@]2(c3ccc(OC)cc3)Oc3cc(OC)cc(OC)c3[C@@]23NC(c2ccc(C(F)(F)F)cc2)=N[C@@]13O: 11.5 mP
COC(=O)/C=C/Oc1nc(-c2ccccc2)nc2c1[C@@H](c1ccccc1)[C@]1(c3ccc(OC)cc3)Oc3cc(OC)cc(OC)c3[C@]21O: -7.5 mP
COc1ccc([C@@]23Oc4cc(OC)cc(OC)c4[C@]2(O)c2nc(C4CCCCC4)[nH]c(=O)c2[C@H]3c2ccccc2)cc1: 39.6 mP
COc1ccc([C@]23[C@H](c4ccccc4)C[C@@H](O)[C@@]2(O)c2c(F)cccc2N3C)cc1: 1.7 mP

Series 2
Compound: C[C@@H](c1cccc(C#N)c1)n1cc(Cl)cc(C(N)=O)c1=N
Effect on: cell-free assay
Method: competition with immobilised ligand
Concentration: 1 µM
Endpoint: remaining binding
PRKCI (Homo sapiens, UniProt P41743): 93%
MAPK14 (Homo sapiens, UniProt Q16539): 100%
WNK1 (Homo sapiens, UniProt Q9H4A3): 97%
FLT3 (Homo sapiens, UniProt P36888, ITD): 98%
MKNK1 (Homo sapiens, UniProt Q9BUB5): 86%
Ribosomal protein S6 kinase alpha-2, N-terminal kinase domain (RPS6KA2, Homo sapiens, UniProt Q15349): 93%
STK36 (Homo sapiens, UniProt Q9NRP7): 94%
PIK3CA (Homo sapiens, UniProt P42336, E545K): 88%
COQ8B (Homo sapiens, UniProt Q96D53): 88%
TGFBR1 (Homo sapiens, UniProt P36897): 81%
Tyrosine-protein kinase ABL1, phosphorylated (ABL1, Homo sapiens, UniProt P00519, Y253F): 85%
VRK2 (Homo sapiens, UniProt Q86Y07): 85%
MET (Homo sapiens, UniProt P08581, M1250T): 99%
GSK3A (Homo sapiens, UniProt P49840): 82%
MKNK2 (Homo sapiens, UniProt Q9HBH9): 100%

Series 3
Target: Beta-1 adrenergic receptor (ADRB1, Homo sapiens, UniProt P08588)
Sequence of UniProt P08588 (whole entry, looked up): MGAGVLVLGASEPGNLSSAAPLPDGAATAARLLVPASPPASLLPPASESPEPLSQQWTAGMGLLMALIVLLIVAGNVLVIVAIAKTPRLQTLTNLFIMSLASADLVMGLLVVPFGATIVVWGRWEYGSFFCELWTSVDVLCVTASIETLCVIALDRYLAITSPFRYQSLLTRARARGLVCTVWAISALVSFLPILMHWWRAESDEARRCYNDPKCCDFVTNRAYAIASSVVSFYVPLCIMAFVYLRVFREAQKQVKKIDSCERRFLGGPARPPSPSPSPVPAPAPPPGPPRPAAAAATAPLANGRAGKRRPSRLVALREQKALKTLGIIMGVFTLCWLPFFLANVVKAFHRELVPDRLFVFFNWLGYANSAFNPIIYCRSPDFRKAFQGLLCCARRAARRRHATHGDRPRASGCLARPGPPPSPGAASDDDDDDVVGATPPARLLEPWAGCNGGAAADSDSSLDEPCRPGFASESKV
Mode: agonist
Endpoint: EC50
N#Cc1ccccc1NC(=O)c1sc2cc(F)ccc2c1Cl: ≥ 100 µM
CC(C)(C)CC(O)CNc1nc(C(F)(F)F)ns1 (stereo not drawn): ≥ 100 µM
COc1cc(CNCC2CCOCC2)ccc1OCC(O)CN(C)C1CCCCC1 (stereo not drawn): ≥ 100 µM
COc1ccccc1N1CCN(C(=O)c2ccc3[nH]c(C)c(C)c3c2)CC1: ≥ 100 µM
CCOc1ccc(C(=O)N2CCc3cc(OC)c(OC)cc3C2COc2ccc3c(C)cc(=O)oc3c2)cc1OCC (stereo not drawn): ≥ 100 µM
NCC(Cc1ccc(O)cc1)c1ccc(O)cc1 (stereo not drawn): ≥ 100 µM
NCC(=O)Nc1cccc(-c2nn3c(=O)cc(N4CCNCC4)nc3s2)c1: ≥ 100 µM
COc1ccc(-c2cnc3[nH]nc(-c4ccc(F)cc4C)c3n2)cn1: ≥ 100 µM
Cc1ccc(C)c(-c2cc(C)c3ccccc3n2)c1: ≥ 100 µM
CC(=O)Oc1c(C)cc(OCC(O)CNC(C)C)c(C)c1C (stereo not drawn): ≥ 100 µM
CN(C)c1ccc(-c2nnc([C@H]3CCN(c4nccc(C(F)(F)F)n4)C3)o2)cc1: ≥ 100 µM
C=C(F)c1sc(CNCCCNc2cc(=O)c3ccccc3[nH]2)c(C)c1Br: ≥ 100 µM
O=C(Nc1cc(F)ccc1Cl)c1cc2n(n1)CC(c1ccc(Br)cc1)OC2 (stereo not drawn): ≥ 100 µM
CCOc1cccc(C(=O)N2CCN(c3ccccc3OC)CCC2C)c1 (stereo not drawn): ≥ 100 µM
OCc1n[nH]c2c1CN(Cc1cccc(OCC(O)CN3CCOCC3)c1)CC2 (stereo not drawn): 28.2 µM
CCOc1ccccc1N1CCN([S+](=O)([O-])c2cc(Cl)ccc2Cl)CC1: ≥ 100 µM
Cn1c(C(O)C(O)c2ccccc2)nc2ccccc21 (stereo not drawn): ≥ 100 µM
O=C1CCCC2=C1C(c1ccc(O)cc1)Nc1ccc(C(=O)c3ccccc3)cc1N2 (stereo not drawn): ≥ 100 µM
COc1cccc2ccc(-c3nccn3CC3(CO)CCOCC3)nc12: ≥ 100 µM
Cc1cc(C(C)Nc2ccccc2)c2nc(N3CCOCC3)cc(=O)n2c1 (stereo not drawn): ≥ 100 µM

Series 4
Target: Platelet-derived growth factor receptor beta (PDGFRB, Homo sapiens, UniProt P09619)
Sequence of UniProt P09619 (whole entry, looked up): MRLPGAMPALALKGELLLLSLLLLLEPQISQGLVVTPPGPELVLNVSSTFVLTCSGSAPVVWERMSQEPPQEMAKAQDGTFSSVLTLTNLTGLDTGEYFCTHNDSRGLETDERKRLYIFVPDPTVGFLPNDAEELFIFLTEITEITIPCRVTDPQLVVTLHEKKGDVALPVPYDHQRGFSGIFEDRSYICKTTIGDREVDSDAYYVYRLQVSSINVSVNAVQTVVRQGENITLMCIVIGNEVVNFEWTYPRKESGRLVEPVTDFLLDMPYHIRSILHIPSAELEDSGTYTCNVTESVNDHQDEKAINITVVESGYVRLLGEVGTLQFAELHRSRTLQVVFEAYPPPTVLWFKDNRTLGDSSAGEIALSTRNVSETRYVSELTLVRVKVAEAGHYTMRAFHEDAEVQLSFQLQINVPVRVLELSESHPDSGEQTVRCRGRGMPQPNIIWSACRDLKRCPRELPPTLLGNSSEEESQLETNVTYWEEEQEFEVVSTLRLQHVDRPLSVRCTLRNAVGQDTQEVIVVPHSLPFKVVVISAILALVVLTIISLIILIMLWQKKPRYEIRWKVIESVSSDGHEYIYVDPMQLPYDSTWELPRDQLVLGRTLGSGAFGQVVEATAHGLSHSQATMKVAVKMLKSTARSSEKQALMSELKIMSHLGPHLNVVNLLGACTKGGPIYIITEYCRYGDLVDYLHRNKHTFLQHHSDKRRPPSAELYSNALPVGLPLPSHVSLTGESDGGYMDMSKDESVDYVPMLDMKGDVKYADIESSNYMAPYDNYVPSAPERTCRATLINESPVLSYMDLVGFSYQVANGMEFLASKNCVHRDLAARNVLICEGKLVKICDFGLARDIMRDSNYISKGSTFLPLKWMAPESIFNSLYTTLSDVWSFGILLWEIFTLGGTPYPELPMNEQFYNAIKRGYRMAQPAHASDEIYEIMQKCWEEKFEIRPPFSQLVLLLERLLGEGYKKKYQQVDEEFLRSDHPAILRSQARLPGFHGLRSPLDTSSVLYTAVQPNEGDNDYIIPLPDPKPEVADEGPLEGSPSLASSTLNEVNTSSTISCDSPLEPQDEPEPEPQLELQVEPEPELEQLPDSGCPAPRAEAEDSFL
Effect on: enzyme activity
Mode: inhibitor
Concentration: 0.5 µM
Baseline: control
Endpoint: remaining activity
CNc1cc2c(Nc3cccc(Br)c3)ncnc2cn1: 86.4%
O=C(O)/C=C/c1cc(Br)c(Br)c(Br)c1Br: 96%
NC(=O)c1ccc(-c2nc(-c3ccc4c(c3)OCCO4)c(-c3ccccn3)[nH]2)cc1: 99.3%
c1cc(-c2cnn3cc(-c4ccc(OCCN5CCCCC5)cc4)cnc23)ccn1: 20.4%
NC(=O)c1cccc(-c2cc(Nc3ccc(OC(F)(F)F)cc3)ncn2)c1: 94.8%
CCN(CC)CCCCN1c2ccccc2Oc2ccc(Cl)cc21: 103%
O=C1NC(=O)/C(=C/c2ccc3c(c2)OC(F)(F)O3)S1: 97.4%
Nc1nc(Nc2ccc(S(N)(=O)=O)cc2)nn1C(=S)Nc1c(F)cccc1F: 45.6%
N#CC(c1ccnc(NCCc2cccnc2)n1)c1nc2ccccc2s1 (stereo not drawn): 103%
N#C/C(=C(/N)SC1C=CC=CC1)c1cccc(C(O)c2ccncc2)c1 (stereo not drawn): 101%
C[C@@H](N)[C@H]1CC[C@H](C(=O)Nc2ccncc2)CC1: 98.4%
O=C(c1ccccc1)c1ccc(N2CCOCC2)cc1O: 96.5%
O=c1c(-c2ccc(F)cc2)c(-c2ccncc2)[nH]n1-c1ccc(Cl)cc1: 101%
CCCCc1c(-c2ccc(O)cc2)[nH]c2nccnc12: 91.4%
Clc1ccc(Nc2nnc(Cc3ccncc3)c3ccccc23)cc1: 65.6%
FC(F)(F)c1ccc(/C=C/c2nc(COc3ccc(CCCCn4ccnn4)cc3)co2)cc1: 98.1%
O=C1c2ccccc2-c2nc3nnnn3nc21: 11.3%
O=Nc1c(-c2c(O)[nH]c3ccccc23)[nH]c2ccccc12: 72.6%
CC(C)n1cnc2c(Nc3cccc(Cl)c3)nc(NCCO)nc21: 94.7%

For quick reference, copied from above (series 4):
CCN(CC)CCCCN1c2ccccc2Oc2ccc(Cl)cc21: 103%
O=C1NC(=O)/C(=C/c2ccc3c(c2)OC(F)(F)O3)S1: 97.4%
Nc1nc(Nc2ccc(S(N)(=O)=O)cc2)nn1C(=S)Nc1c(F)cccc1F: 45.6%
N#CC(c1ccnc(NCCc2cccnc2)n1)c1nc2ccccc2s1 (stereo not drawn): 103%
N#C/C(=C(/N)SC1C=CC=CC1)c1cccc(C(O)c2ccncc2)c1 (stereo not drawn): 101%
C[C@@H](N)[C@H]1CC[C@H](C(=O)Nc2ccncc2)CC1: 98.4%
O=C(c1ccccc1)c1ccc(N2CCOCC2)cc1O: 96.5%
O=c1c(-c2ccc(F)cc2)c(-c2ccncc2)[nH]n1-c1ccc(Cl)cc1: 101%
CCCCc1c(-c2ccc(O)cc2)[nH]c2nccnc12: 91.4%
Clc1ccc(Nc2nnc(Cc3ccncc3)c3ccccc23)cc1: 65.6%
FC(F)(F)c1ccc(/C=C/c2nc(COc3ccc(CCCCn4ccnn4)cc3)co2)cc1: 98.1%
